Measured values from different studies.
Parts stem from different laboratories: compare values within a part only.
UniProt O94921, sequence (whole entry, looked up): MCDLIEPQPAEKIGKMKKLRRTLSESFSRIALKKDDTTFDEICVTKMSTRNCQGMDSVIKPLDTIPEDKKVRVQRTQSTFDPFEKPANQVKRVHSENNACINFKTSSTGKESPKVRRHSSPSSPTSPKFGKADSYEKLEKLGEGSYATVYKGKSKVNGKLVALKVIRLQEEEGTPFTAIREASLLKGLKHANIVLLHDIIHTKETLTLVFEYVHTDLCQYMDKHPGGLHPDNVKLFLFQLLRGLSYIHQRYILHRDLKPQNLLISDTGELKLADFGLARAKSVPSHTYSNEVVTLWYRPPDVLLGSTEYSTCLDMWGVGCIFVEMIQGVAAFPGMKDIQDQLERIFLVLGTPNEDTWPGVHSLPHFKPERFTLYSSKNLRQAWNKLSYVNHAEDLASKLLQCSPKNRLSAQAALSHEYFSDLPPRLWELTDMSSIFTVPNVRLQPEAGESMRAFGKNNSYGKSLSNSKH
UniProt O75116, sequence (whole entry, looked up): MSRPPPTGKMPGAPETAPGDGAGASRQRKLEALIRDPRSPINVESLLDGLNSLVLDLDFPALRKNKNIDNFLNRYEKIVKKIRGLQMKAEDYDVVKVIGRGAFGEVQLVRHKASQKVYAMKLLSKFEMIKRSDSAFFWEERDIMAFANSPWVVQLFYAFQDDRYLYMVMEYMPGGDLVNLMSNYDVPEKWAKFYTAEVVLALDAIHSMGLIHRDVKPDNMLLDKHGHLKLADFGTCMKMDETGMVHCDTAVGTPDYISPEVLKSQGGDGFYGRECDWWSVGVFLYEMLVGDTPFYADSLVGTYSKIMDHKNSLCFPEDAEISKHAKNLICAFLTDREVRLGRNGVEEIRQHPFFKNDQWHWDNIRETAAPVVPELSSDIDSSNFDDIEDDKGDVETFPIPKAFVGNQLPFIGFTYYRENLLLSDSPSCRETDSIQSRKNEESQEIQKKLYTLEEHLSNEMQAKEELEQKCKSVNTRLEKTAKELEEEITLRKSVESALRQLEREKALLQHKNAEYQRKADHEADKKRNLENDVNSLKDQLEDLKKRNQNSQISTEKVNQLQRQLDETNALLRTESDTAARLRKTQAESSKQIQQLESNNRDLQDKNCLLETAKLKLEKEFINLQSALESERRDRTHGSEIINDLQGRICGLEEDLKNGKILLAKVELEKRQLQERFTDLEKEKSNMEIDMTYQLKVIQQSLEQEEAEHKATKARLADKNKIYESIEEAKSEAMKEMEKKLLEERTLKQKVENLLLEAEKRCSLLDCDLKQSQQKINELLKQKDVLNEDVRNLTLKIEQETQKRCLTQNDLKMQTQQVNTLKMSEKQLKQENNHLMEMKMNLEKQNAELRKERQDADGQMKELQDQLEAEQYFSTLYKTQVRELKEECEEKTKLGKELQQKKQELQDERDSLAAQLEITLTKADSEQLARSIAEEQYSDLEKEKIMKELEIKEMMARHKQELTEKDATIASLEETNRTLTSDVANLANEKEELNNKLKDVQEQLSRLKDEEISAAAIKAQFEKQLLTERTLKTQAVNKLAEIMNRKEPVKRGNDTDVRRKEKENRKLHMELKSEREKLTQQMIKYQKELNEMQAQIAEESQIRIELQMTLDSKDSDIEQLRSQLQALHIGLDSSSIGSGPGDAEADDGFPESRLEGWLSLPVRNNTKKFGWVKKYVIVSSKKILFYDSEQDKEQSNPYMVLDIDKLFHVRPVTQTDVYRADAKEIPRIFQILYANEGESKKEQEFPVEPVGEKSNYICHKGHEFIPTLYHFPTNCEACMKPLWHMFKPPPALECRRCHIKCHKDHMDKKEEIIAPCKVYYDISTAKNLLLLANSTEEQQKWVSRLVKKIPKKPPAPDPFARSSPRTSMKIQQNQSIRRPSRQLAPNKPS
UniProt Q8NEB9, sequence (whole entry, looked up): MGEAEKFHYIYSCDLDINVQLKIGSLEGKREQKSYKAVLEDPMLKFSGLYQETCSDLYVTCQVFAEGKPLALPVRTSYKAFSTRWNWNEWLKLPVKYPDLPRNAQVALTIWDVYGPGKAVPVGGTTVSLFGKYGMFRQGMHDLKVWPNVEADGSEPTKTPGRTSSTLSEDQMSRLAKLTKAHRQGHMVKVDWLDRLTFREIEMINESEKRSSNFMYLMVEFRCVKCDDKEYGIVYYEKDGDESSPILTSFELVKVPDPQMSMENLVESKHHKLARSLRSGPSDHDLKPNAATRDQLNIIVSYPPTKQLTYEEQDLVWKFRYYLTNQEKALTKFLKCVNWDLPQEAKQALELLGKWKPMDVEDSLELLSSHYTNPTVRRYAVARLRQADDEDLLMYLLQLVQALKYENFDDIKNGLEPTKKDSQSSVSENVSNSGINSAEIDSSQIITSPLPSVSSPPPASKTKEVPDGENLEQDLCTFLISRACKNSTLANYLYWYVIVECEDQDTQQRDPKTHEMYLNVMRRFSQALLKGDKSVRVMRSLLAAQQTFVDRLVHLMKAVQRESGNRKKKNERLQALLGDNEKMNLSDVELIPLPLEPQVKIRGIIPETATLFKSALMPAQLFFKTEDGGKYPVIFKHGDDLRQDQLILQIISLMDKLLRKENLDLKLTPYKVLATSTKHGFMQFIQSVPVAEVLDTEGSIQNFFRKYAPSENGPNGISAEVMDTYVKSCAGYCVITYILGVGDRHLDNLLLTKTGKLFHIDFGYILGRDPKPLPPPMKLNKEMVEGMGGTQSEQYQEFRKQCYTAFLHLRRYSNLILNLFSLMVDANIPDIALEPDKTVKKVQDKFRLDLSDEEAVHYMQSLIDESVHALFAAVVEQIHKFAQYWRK
UniProt Q9BZL6, sequence (whole entry, looked up): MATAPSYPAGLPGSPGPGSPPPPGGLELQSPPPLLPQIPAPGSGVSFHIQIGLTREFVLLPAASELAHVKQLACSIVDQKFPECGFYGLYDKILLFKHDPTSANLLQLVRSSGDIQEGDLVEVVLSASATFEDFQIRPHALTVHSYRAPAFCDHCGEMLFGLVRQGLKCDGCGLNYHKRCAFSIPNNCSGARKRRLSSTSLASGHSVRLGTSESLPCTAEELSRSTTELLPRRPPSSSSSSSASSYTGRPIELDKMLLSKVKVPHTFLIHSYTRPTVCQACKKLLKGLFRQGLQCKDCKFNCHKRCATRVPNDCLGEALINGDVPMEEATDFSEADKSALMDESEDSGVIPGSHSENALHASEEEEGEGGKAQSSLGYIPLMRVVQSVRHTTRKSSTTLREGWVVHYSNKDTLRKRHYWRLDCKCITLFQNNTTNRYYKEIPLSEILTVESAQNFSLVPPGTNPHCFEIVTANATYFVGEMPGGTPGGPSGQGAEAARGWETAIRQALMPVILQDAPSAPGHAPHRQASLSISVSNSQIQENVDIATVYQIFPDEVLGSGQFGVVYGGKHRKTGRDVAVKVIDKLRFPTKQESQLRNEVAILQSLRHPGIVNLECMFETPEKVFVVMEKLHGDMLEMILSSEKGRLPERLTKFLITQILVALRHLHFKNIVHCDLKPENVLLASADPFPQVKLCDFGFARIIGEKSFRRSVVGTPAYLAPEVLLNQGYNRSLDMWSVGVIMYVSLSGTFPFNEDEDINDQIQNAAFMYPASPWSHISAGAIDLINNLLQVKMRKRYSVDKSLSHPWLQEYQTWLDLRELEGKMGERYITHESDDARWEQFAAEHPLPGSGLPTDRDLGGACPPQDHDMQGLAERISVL
UniProt Q9NQU5, sequence (whole entry, looked up): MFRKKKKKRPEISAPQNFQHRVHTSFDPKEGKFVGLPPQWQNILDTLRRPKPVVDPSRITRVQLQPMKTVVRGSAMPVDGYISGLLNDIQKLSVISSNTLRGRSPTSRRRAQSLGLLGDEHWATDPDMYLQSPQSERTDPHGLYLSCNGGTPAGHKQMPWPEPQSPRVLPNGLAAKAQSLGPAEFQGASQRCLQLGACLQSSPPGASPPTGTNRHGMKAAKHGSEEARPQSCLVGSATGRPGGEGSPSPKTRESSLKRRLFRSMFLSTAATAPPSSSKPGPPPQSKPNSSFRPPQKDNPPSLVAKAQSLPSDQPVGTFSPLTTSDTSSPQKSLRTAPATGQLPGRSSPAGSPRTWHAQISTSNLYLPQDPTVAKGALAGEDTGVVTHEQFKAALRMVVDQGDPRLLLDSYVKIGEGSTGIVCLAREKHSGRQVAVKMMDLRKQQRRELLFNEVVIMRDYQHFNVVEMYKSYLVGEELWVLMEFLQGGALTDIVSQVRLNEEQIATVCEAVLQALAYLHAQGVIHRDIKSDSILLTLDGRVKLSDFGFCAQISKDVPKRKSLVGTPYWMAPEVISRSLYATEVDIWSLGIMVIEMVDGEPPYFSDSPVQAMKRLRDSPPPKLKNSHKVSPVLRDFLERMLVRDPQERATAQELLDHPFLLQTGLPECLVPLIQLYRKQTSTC

Series 1
Compound: COc1ccc2c(c1)O[C@@H](c1ccc(OC)c(OC)c1)C[C@H]2NC(=O)C1(c2ccc3c(c2)OC(F)(F)O3)CC1
Method: competition with immobilised ligand
Concentration: 1 µM
| target | test | remaining binding [%] |
| --- | --- | --- |
| MAP2K2 (Homo sapiens, UniProt P36507) | cell-free assay | 87 |
| EGFR (Homo sapiens, UniProt P00533, del747-752/P753S) | cell-free assay | 62 |
| DAPK1 (Homo sapiens, UniProt P53355) | cell-free assay | 99 |
| PI4KB (Homo sapiens, UniProt Q9UBF8) | cell-free assay | 73 |
| PRKD2 (Homo sapiens, UniProt Q9BZL6) | cell-free assay | 100 |
| PAK6 (Homo sapiens, UniProt Q9NQU5) | cell-free assay | 79 |
| NTRK2 (Homo sapiens, UniProt Q16620) | cell-free assay | 91 |
| CDK14 (Homo sapiens, UniProt O94921) | cell-free assay | 93 |
| BMPR1A (Homo sapiens, UniProt P36894) | binding | 92 |
| ROCK2 (Homo sapiens, UniProt O75116) | cell-free assay | 78 |
| PIK3C3 (Homo sapiens, UniProt Q8NEB9) | cell-free assay | 78 |

Series 2
Target: RING finger protein unkempt homolog, zinc fingers 1-6, GST-SBP tag (UNK, Homo sapiens, UniProt Q9C0B0, residues 30-357)
Method: RNA Bind-n-Seq
Molecule type: RNA
Sample: in vitro
Concentration: not given
Notes: RNA with constant flanks, human-mouse chimeric sites, ends assumed
Reference: input RNA pool
Reading: higher = stronger binding
Constant ends, left off below: GGGAGUUCUACAGUCCGACGAUC … CAACAGAGGAUUGAGCAUCA
Residues (chain): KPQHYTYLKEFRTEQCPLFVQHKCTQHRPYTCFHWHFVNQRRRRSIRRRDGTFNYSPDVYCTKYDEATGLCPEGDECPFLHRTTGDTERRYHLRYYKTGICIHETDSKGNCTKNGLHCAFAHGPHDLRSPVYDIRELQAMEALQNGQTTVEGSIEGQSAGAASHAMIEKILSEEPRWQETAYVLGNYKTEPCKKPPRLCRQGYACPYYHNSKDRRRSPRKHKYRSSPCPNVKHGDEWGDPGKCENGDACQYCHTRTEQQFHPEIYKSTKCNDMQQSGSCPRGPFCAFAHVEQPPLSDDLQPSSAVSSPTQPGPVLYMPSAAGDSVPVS
| Strand | bound/input enrichment [ratio] |
| --- | --- |
| AAAGCCCAAGUAUUUUGAAAAAACUCGAACAGAUUUGACAAGGGUAGCCAGCUUGGAGUCUAGCAACUUGCCAAUGUGUUUACCAAUUUUGGGGGCUGUUUUUCUUUUCUUCUUUCAAAU | 0.439 |
| CGCUGGCCCAAGCUGAUGUAAAUGUUUGGCCUCCAUCUCUCAGGCACGUUUGCCUUCUCUUAGUCCCUGUUUUCGGGAUGUUAUGAAUCUCAGUACUGUGGUUUGAAAGCACCAGCUUUG | 0.124 |
| GCGGCAGAAUCAUGGAGGACAUAAUGCACUUGCCCAGGUCGCGCAUCAACGCCAGCAUGUUACCACAGUAUAUCGACCGGCCCGUGUGCUUCGUGGGGAAGCUGGAAAAGAUUCAUCCCA | 0.083 |
| GUGCCCUUCUCGCUGCUGCGGAGCCCGAGCUGGGAACCAUUCCGGGACUGGUACCCUGCACACAGCCGCCUCUUCGACCAGGCCUUCGGGGUGCCCCGGCUGCCGGAUGAGUGGUCGCAG | 0.0546 |
| UUGUGCAAUGAUGCUUGAGAUGGUUUUUGCAAAAGCAGAAAUCGCUGCAAGGUAAUCACAAUAGAUAAAAGUGGUAUUUUAAACCUUUGAAAUAAAUGGAUGUAACUGUACGUUGGUACA | 0.923 |
| UCUUUAAAAAAAAAAUUACCUUUUCUGACAGUGCUUUCCCUCCCAUAGGUCCAGGUUCAAGCUCAAAGAGCAAAGGCUCCGCAAACAGCUCAAACAUCUGAUGAAGAAAGAUUUCUGAGA | 0.687 |
| GAUCUCGGGCCCUCCCCAGGGGCCUCCUUCUCUGCAUUCACUGCUUCUGCAUCAGAUACUUUCAGCUGCAACUCCCUACUGGGUGGGGCACCCAUUUCAGGCAGAAGGUUUUGGUACCCU | 0.206 |
| CAGCGCCGAGGCCGCGGUUUCCCCCUGGGUGUGCUGAGCCGCCGCCAUGGGCAUCAAAUUUUUAGAAGUUAUCAAACCAUUCUGUGCAGUUCUACCAGAAAUUCAGAAACCGGAAAGGAA | 1.37 |

Series 3
Target: Signal transducer and activator of transcription 1-alpha/beta, full length (STAT1, Homo sapiens, UniProt P42224, residues 1-750)
UniProt P42224, sequence (whole entry, looked up): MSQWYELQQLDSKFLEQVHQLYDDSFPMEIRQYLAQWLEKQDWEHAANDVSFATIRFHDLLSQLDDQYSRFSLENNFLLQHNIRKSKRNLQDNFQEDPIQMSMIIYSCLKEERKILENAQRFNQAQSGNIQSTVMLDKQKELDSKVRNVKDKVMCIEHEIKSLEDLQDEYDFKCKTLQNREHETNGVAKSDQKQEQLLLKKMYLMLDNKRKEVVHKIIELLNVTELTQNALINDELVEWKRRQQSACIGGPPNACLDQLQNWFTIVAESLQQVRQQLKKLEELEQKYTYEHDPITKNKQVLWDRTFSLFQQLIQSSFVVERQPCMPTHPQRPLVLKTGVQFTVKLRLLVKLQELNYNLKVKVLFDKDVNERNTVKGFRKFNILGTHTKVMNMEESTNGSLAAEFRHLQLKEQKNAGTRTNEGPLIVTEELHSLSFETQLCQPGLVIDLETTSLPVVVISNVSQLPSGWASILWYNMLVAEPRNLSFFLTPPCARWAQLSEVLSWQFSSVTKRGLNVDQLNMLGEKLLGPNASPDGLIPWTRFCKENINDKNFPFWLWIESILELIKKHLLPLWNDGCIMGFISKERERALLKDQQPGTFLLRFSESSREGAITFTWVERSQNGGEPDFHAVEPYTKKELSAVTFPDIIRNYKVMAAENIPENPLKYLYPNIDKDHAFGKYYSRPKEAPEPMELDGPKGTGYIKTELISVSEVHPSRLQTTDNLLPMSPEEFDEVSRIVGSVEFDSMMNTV
Method: protein-binding microarray
Molecule type: hairpin DNA
Sample: in vitro
Concentration: not given
Notes: whole hairpin DNA, median over replicate spots
Reference: not given
Reading: higher = stronger binding
Constant ends, left off below: GAGGCC … GGCCTCACACTCTTTCCCTACACG
| Strand | median fluorescence |
| --- | --- |
| TTTCCAGGAAGCCTCCTGGCTTCCTGGAAA | 6100 a.u. |
| TTTCCCCTAAGCCTCCTGGCTTAGGGGAAA | 1350 a.u. |
| TCTCCCGGAAGCCTCCTGGCTTCCGGGAGA (5mC at 8) | 7230 a.u. |
| TTTCCGGGAAGCCTCCTGGCTTCCCGGAAA (5mC at 11 31) | 3290 a.u. |
| TTTCGCGGAAGCCTCCTGGCTTCCGCGAAA (5mC at 32) | 1550 a.u. |
| TCACCCGGAAGCCTCCTGGCTTCCGGGTGA (5mC at 8) | 1730 a.u. |
| CATCCCGGAAGCCTCCTGGCTTCCGGGATG | 1330 a.u. |
| TTTCCCGAAAGCCTCCTGGCTTTCGGGAAA | 1510 a.u. |

Series 4
Organism: Sarcocystis neurona
Effect on: parasite growth
Concentration: 10 µM
Notes: secondary screen
| Structure (SMILES) | inhibition |
| --- | --- |
| CC(C)(S)[C@@H](N)C(=O)O | -17% |
| C/C=C1\[C@H]2C=C(C)C[C@]1(N)c1ccc(=O)[nH]c1C2 | -33.2% |
| CN1CCC(=C2c3ccccc3C=Cc3ccccc32)CC1 | 3.2% |
| C[C@@H](c1ncncc1F)[C@](O)(Cn1cncn1)c1ccc(F)cc1F | -23.6% |

A few entries again (series 1):
| target | test | remaining binding [%] |
| --- | --- | --- |
| PAK6 (Homo sapiens, UniProt Q9NQU5) | cell-free assay | 79 |
| NTRK2 (Homo sapiens, UniProt Q16620) | cell-free assay | 91 |
